Assay results from different studies.
Lines come from different studies, so protocols differ. “And” joins repeats or separate records; there may be more than shown.
CDK8 with cyclin C: Cyclin-dependent kinase 8, with cyclin C (CDK8, Homo sapiens, UniProt P49336)
CDK8: Cyclin-dependent kinase 8 (CDK8, Homo sapiens, UniProt P49336)

SMILES = CN1CCN(Cc2ccc(-c3ccc(CO[C@H]4CCC[C@@H]4NC(=O)c4cc(-c5cnn(C)c5)cnc4N)cc3)cc2)CC1; target = CDK8 with cyclin C; test = enzyme activity, inhibitor; conditions = 0.1 µM; measurement = inhibition; value = 5%
SMILES = C=CC(=O)N1CCCC(n2c(=O)c3ncccc3n(Cc3ccc(Oc4ccccc4)cc3)c2=O)C1 (stereo not shown); target = CDK8; test = cell-free assay, competition with immobilised ligand; conditions = 1 µM; measurement = remaining binding; value = 95%
SMILES = CN1C[C@@H](c2c[nH]c3cc(Br)ccc23)NC[C@@H]1c1c[nH]c2cc(Br)ccc12; target = CDK8 with cyclin C; test = enzyme activity, inhibitor; conditions = 10 µM; measurement = remaining activity; value = 110%
SMILES = CCN1CCN(Cc2ccc(NC(=O)c3ccc(C)c(NC(=O)c4cncc(-c5cccs5)c4)c3)cc2C(F)(F)F)CC1; target = CDK8; test = binding, competition with immobilised ligand; conditions = 1 µM; measurement = remaining binding; value = 5.6%
SMILES = CNC1C[S+]2CC[S+]3CC[S+](C1)[Ru-4]321([N]=C=S)[n]2c3ccc(OC)cc3c3c4c(c5cc(F)c[n+]1c5c32)C(=O)NC4=O (stereo not shown); target = CDK8; test = KinomeScan; conditions = 0.1 µM; how to read = baseline: untreated; measurement = remaining binding; value = 73%
SMILES = CC(C)=CC1OC(C)(C)C2C=C3C(=O)C(Cl)=CC(O)C3C3C(O)C4OC4C(=O)C132 (stereo not shown); target = CDK8; test = cell-free assay, competition with immobilised ligand; conditions = 10 µM; measurement = remaining binding; value = 100%
SMILES = C[C@H]1CN(C(=O)c2cn(-c3ccnc(N)n3)c3cc(C#CC4(O)CCCCC4)ccc23)CCN1; target = CDK8 with cyclin C; test = cell-free assay, TR-FRET; conditions = 1 µM; measurement = inhibition; value = 0%
SMILES = COc1cc(Nc2nccc(-c3cnn4nc(OC)ccc34)n2)cc(C(F)(F)F)c1; target = CDK8; test = binding, competition with immobilised ligand; conditions = 1 µM; measurement = remaining binding; value = 100%
SMILES = Nc1ncc2c(n1)-c1c([nH]c3ccc(C4=CCOCC4)cc13)CCC2; target = CDK8; test = binding, competition with immobilised ligand; conditions = 1 µM; measurement = remaining binding; value = 96%
SMILES = COc1c(Cl)cccc1Nc1c(-c2ccncc2C#C[C@@]2(C)CCCN2C(=O)/C=C/CN(C)C)[nH]c2c1C(=O)NCC2; target = CDK8; test = binding, competition with immobilised ligand; conditions = 3 µM; measurement = remaining binding; value = 100%
SMILES = C=CC(=O)N1CCc2ccc(-n3c(=O)ccc4cnc5ccc(-c6cnn(C)c6)cc5c43)cc21; target = CDK8; test = KINOMEscan; conditions = 1 µM; how to read = baseline: DMSO control; measurement = remaining binding; value = 93%
SMILES = COc1cc(Nc2nc(C)cc(-c3cnn4nc(OC)ccc34)n2)cc(C(F)(F)F)c1; target = CDK8; test = inhibitor; conditions = 1 µM; how to read = baseline: control; measurement = remaining activity; value = 100%
SMILES = Cc1ccc(-c2c(/C=C(\C#N)C(=O)NC(C)C)n(CCCO)c3ncnc(N)c23)cc1; target = CDK8; test = cell-free assay, competition with immobilised ligand; conditions = 1 µM; measurement = remaining binding; value = 80%
SMILES = CCN1CCN(Cc2ccc(C(=O)Nc3ccc(C)c(NCc4cnc5[nH]ccc5c4OC)c3)cc2C(F)(F)F)CC1; target = CDK8; test = binding, competition with immobilised ligand; conditions = 1 µM; measurement = remaining binding; value = 32%
SMILES = Cc1cnc2nc1Nc1cccc(c1)COC/C=C/COCc1cc(ccc1OCCN1CCOCC1)N2; target = CDK8; conditions = concentration not given; measurement = percent of control; value = 83%
SMILES = CNC(=O)C1CCN(c2cc(C)c(F)cc2NC(=O)c2ccc(-c3cc(O)ccc3C)c(C)c2)CC1; target = CDK8; test = binding, competition with immobilised ligand; conditions = 1 µM; measurement = remaining binding; value = 94%
SMILES = C=CC(=O)N1Cc2nc(-c3cc(-c4cc(Cl)cnc4Cl)c(F)cc3F)n(-c3ccncn3)c2C1; target = CDK8 with cyclin C; test = cell-free assay, inhibitor; conditions = 1 µM; measurement = inhibition; value = 0.2%
SMILES = C[C@]1(O)CCCN(c2nc(Nc3ccc(S(=O)(=O)N[C@H]4CC[C@H](CN5CCN(c6ccc(C7CCC(=O)NC7=O)cc6F)CC5)CC4)cc3)ncc2C(F)(F)F)C1 (stereo partly shown); target = CDK8; test = binding, competition with immobilised ligand; conditions = 1 µM; measurement = remaining binding; value = 76%
SMILES = COCC12C(=O)NC3C4(C(OC)CC1O)C1CC5(O)C(OC)C(O)C(OC(C)=O)(C1C5OC(=O)c1ccccc1)C3(O)C(OC)C24 (stereo not shown); target = CDK8 with cyclin C; test = kinase activity, inhibitor, ProQinase kinase profiling; conditions = 25 µM; how to read = baseline: control; measurement = remaining activity; value = 91% and 114%

Some of these lines once more:
SMILES = COCC12C(=O)NC3C4(C(OC)CC1O)C1CC5(O)C(OC)C(O)C(OC(C)=O)(C1C5OC(=O)c1ccccc1)C3(O)C(OC)C24 (stereo not shown); target = CDK8 with cyclin C; test = kinase activity, inhibitor, ProQinase kinase profiling; conditions = 25 µM; how to read = baseline: control; measurement = remaining activity; value = 91% and 114%
SMILES = CNC1C[S+]2CC[S+]3CC[S+](C1)[Ru-4]321([N]=C=S)[n]2c3ccc(OC)cc3c3c4c(c5cc(F)c[n+]1c5c32)C(=O)NC4=O (stereo not shown); target = CDK8; test = KinomeScan; conditions = 0.1 µM; how to read = baseline: untreated; measurement = remaining binding; value = 73%
